Assay results pooled from the literature.
± marks the error that the study gave.

`O=C(NOC(=O)C(O)Cc1ccccc1)OCc1ccccc1` (centres unmarked) has a pKa of 7.6 (spectrophotometric titration; 25 °C, acidic NH).
For `OCCN1CCN(CCCN2c3ccccc3Sc3ccc(C(F)(F)F)cc32)CC1`, the pKa was 4.55.
`O=S(=O)([O-])c1cc(O)c2ccc3c(S(=O)(=O)[O-])cc(S(=O)(=O)[O-])c4ccc1c2c34.[Na+].[Na+].[Na+]` has a pKa of 7.01 (ratiometric absorbance; 70 µM).
`CC1=CC(c2ccccc2)=NS(=O)(=O)N1` has a pKa of 2.94 ± 0.1 (polymer-water distribution, UHPLC; 25 °C).
`N#Cc1ccc(C[C@H](NC(=O)[C@@H](N)CC(=O)O)C(=O)NCC(N)=O)cc1` gave a pKa of 7.7 (N-terminal amino group, fluorescence pH titration; water; 20 µM, 25 °C, two-state fit).
With `Nc1nc(=O)[nH]c2c([C@@H]3O[C@H](CO)[C@@H](O)[C@H]3O)snc12` the pKa was 2.94 (UV-vis absorption titration).
`CC(C)[C@H](N)C(=O)N[C@@H](Cc1ccc(C#N)cc1)C(=O)NCC(N)=O` has a pKa of 7.29 (N-terminal amino group, fluorescence pH titration; water; 20 µM, 25 °C, two-state fit).
With `CO[C@@H]1[C@H](O)[C@@H](CO)O[C@H]1n1cnc2c(=O)[nH]c(N)nc21` the pKa was 9.5 (UV absorption; water; 25 °C, N1 deprotonation).
`N#Cc1ccc(C[C@H](NC(=O)[C@@H](N)CC(N)=O)C(=O)NCC(N)=O)cc1` gave a pKa of 6.69 (N-terminal amino group, fluorescence pH titration; water; 20 µM, 25 °C, two-state fit).
`COc1c(N2CCNC(C)C2)c(F)cc2c(=O)c(C(=O)O)cn(C3CC3)c12` (centres unmarked) gave a pKa of 6.25 (pH titration; 25 °C, carboxylic acid).
`CSCC[C@H](N)C(=O)N[C@@H](Cc1ccc(C#N)cc1)C(=O)NCC(N)=O` has a pKa of 7.04 (N-terminal amino group, fluorescence pH titration; water; 20 µM, 25 °C, two-state fit).
With `O=c1[nH]c(=O)c2nsc([C@@H]3O[C@H](CO)[C@@H](O)[C@H]3O)c2[nH]1` the pKa was 8.94 (fluorescence emission vs pH).
`O=c1cc(-c2ccc(O)c(-c3c(O)cc(O)c4c(=O)cc(-c5ccc(O)cc5)oc34)c2)oc2cc(O)cc(O)c12` gave a pKa of 4.57 (UV-vis pH titration; ethanol-water, 0.1 M NaCl; 25 µM, 25 °C, second pKa, o-carbonyl-phenol).
With `Nc1ncnc2c([C@@H]3O[C@H](CO)[C@@H](O)[C@H]3O)snc12` the pKa was 4.25 (UV-vis absorption titration).
The pKa of `CN1CCN(CCCN2c3ccccc3Sc3ccc(C(F)(F)F)cc32)CC1` is reported as 5.03.
`C[C@H](N)C(=O)N[C@@H](Cc1ccc(C#N)cc1)C(=O)NCC(N)=O` has a pKa of 7.99 (N-terminal amino group, fluorescence pH titration; water; 20 µM, 25 °C, two-state fit).
The pKa of `O=c1[nH]cnc2c([C@@H]3O[C@H](CO)[C@@H](O)[C@H]3O)snc12` is reported as 7.83 (fluorescence emission vs pH).
